Measured values of several laboratories.
Compare with care: the assays were run in different laboratories. Numbers after ± are the reported error.
CASP7: Caspase-7 (CASP7, Homo sapiens, UniProt P55210)
Sequence of UniProt P55210 (whole entry, looked up): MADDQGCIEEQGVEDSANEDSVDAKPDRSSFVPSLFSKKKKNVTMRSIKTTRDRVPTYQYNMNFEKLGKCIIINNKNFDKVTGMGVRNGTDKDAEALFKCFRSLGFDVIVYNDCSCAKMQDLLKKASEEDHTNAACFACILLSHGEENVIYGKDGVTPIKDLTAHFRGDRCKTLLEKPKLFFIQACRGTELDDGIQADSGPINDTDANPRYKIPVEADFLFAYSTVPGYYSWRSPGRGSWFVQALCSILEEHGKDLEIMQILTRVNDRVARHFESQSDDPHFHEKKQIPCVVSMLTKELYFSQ
Sequence of UniProt P00921 (whole entry, looked up): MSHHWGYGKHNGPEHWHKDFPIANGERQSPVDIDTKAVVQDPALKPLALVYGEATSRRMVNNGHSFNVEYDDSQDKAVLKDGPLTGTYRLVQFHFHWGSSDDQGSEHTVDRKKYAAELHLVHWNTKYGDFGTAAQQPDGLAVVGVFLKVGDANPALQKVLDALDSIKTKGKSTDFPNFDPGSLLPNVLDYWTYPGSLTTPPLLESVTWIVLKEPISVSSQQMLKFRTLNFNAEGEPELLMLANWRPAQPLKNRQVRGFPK
Sequence of UniProt Q03431 (whole entry, looked up): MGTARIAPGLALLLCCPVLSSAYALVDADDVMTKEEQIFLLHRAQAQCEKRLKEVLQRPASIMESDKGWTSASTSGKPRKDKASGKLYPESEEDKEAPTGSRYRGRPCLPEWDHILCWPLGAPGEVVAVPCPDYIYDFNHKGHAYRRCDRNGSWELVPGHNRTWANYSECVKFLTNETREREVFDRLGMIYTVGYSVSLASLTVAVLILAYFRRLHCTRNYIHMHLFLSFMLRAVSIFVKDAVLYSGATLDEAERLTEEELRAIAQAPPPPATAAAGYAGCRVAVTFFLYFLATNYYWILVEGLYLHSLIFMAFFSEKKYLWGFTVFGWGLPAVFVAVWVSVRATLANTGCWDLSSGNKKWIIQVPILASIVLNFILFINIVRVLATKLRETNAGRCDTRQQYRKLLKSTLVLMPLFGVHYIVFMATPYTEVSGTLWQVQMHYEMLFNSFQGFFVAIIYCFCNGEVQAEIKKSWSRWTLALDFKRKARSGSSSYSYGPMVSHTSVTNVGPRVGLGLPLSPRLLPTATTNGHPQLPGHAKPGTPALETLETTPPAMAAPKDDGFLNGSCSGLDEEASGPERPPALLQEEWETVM
Sequence of UniProt P13346 (whole entry, unmodified, looked up): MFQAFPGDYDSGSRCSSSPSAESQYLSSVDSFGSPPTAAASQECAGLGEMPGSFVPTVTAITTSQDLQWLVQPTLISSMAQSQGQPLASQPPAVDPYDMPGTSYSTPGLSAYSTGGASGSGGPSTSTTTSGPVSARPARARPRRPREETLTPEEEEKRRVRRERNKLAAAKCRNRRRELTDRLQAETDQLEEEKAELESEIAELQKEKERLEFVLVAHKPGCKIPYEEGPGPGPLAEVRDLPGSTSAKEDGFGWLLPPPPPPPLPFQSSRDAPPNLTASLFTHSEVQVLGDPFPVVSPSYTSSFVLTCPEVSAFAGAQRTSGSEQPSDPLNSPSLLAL
Sequence of UniProt P62316 (whole entry, looked up): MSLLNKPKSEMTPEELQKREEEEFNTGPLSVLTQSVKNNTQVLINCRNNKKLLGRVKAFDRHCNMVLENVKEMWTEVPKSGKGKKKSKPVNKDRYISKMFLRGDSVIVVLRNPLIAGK
Sequence of UniProt P19491 (whole entry, looked up): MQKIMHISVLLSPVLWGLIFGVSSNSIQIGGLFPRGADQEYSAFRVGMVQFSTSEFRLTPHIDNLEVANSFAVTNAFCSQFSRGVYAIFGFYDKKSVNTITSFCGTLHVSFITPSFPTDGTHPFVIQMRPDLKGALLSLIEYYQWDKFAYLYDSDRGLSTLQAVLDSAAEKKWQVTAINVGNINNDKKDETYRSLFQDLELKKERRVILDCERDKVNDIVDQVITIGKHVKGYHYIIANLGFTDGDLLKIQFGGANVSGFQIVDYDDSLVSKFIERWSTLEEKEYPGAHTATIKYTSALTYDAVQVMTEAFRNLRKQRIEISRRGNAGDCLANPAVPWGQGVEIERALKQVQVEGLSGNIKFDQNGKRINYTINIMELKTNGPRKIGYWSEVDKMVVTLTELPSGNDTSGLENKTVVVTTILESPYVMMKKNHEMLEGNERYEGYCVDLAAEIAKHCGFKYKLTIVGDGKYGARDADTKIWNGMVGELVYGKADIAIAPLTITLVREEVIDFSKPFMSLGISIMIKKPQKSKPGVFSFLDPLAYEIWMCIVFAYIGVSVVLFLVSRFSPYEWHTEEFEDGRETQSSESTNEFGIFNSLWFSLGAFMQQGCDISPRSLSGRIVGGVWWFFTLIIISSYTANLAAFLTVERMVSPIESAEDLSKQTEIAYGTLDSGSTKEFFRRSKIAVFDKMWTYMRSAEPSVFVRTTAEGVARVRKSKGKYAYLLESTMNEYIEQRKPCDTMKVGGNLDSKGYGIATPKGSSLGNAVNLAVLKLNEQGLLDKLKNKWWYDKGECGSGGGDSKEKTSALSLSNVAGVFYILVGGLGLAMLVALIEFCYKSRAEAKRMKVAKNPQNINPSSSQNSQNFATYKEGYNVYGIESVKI
Sequence of UniProt Q9HB29 (whole entry, looked up): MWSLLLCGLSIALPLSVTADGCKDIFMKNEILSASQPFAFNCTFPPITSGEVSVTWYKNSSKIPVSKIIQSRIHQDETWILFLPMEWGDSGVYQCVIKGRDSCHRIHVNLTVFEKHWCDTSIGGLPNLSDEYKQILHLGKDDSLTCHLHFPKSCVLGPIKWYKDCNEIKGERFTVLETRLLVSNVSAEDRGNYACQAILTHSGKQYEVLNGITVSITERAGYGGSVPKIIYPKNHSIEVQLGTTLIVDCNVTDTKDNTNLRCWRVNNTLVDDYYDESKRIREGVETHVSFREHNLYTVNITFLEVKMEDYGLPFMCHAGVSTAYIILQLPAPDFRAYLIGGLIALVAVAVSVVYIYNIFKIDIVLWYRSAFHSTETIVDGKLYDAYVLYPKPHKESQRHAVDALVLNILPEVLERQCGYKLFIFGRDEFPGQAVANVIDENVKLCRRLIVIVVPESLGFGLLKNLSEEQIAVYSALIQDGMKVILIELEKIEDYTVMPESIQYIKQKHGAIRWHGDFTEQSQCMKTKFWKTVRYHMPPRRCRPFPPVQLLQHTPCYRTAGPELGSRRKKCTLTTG
Sequence of UniProt P15066 (whole entry, unmodified, looked up): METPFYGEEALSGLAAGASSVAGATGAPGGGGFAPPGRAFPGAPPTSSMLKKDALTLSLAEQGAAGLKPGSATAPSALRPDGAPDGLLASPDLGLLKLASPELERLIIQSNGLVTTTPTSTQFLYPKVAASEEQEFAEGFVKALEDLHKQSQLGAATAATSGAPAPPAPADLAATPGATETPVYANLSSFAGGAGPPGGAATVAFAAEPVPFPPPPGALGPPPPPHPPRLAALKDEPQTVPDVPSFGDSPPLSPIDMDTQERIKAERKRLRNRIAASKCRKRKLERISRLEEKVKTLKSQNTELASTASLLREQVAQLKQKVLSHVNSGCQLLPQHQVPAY

For CC(C)[C@@H]1NC(=O)[C@H](Cc2ccccc2)NC(=O)CSC[C@@H](C(N)=O)NC(=O)[C@H](CCC(=O)O)NC(=O)[C@H](CO)NC(=O)[C@H](Cc2c[nH]c3cccc(Cl)c23)NC(=O)[C@H](C2CCCCC2)NC(=O)[C@H](C(C)C)NC(=O)[C@H](Cc2ccc(O)cc2)NC(=O)[C@H](CC(=O)O)NC(=O)[C@H](Cc2c[nH]c3ccccc23)NC(=O)[C@H](Cc2ccc(N)nc2)NC(=O)[C@H](Cc2c[nH]c3ccc(Cl)cc23)NC(=O)[C@H](CCC(=O)O)NC1=O, the remaining activity was 92.5% (Interleukin-1 receptor-like 2 (IL1RL2, Homo sapiens, UniProt Q9HB29); reporter gene (SEAP), inhibitor, HEK-Blue IL-36R reporter; HEK-Blue IL-36R cells; 3.7 µM, 6 h, together with: IL-36β 100 ng/mL).
Cc1ccc(NC(=O)c2nn(C)c(=O)c3ccccc23)nc1: “number of kinases hit” 0 (human kinase panel; binding, KINOMEscan; 10000 nM, %Ctrl below 35).
For C=CC(=O)N1CCCC(n2c(=O)c3ncccc3n(Cc3ccc(Oc4ccccc4)cc3)c2=O)C1 (centres unmarked), “melting temperature shift” read -3.01 (Small nuclear ribonucleoprotein Sm D2 (Homo sapiens, UniProt P62316); thermal proteome profiling, refers to: SNRPD2; unit not given; reference: vehicle).
CCCCCC=CC=C1C(=O)C=CC1CC=CCCCC(=O)O (centres unmarked) — result for “isoTOP-ABPP competition ratio”: 2.6 (Anaphase-promoting complex subunit 16 (ANAPC16, Homo sapiens, UniProt Q96DE5); competitive isoTOP-ABPP, refers to: C10orf104 cysteine peptide; Ramos soluble proteome; 100 µM, together with: iodoacetamide probe; reference: DMSO over compound-treated, higher = stronger cysteine blockade).
C=CC(=O)N1CCC(c2ccccc2)CC1 gave a relative abundance of 34.6% (Fosb/Jund, ΔFosB bZIP domain (Mus musculus, UniProt P13346+P15066); intact mass LC-MS, refers to: unmodified JUND bZIP; concentration not given; reference: total JUND species).
For CCCCCCCCCCCCCCCC(=O)NCCCC[C@H](NC(=O)[C@H](CCC(=O)O)NC(=O)[C@H](Cc1ccc(O)cc1)NC(=O)[C@H](CCC(=O)O)NC(=O)COCC(=O)NCCCOCCOCCOCCCNC(=O)[C@H](Cc1c[nH]c2ccccc12)NC(=O)[C@H](CCCCN)NC(=O)[C@H](C)NC(=O)[C@H](CCCCNC(=N)N)NC(=O)[C@H](CCC(N)=O)NC(=O)[C@H](Cc1c[nH]cn1)NC(=O)[C@H](CCSC)NC(=O)[C@H](CC(C)C)NC(=O)[C@H](CCC(N)=O)NC(=O)[C@@H](NC(=O)[C@H](CCC(=O)O)NC(=O)C(C)(C)NC(=O)[C@@H](NC(=O)C(C)(C)N)C(C)C)[C@@H](C)CC)C(=O)N[C@@H](CCC(=O)O)C(=O)N[C@@H](Cc1ccc(O)cc1)C(=O)N[C@@H](CCC(=O)O)C(N)=O, “cAMP luminescence AUC” read 20 a.u. (PTH1R (Homo sapiens, UniProt Q03431); agonist; Saos-2 with cAMP reporter; 100 pM, 30 min, ligand-on phase; higher = more cAMP).
COc1cc(Nc2nccc(-c3cnn4nc(OC)ccc34)n2)cc(C(F)(F)F)c1 has a remaining binding of 98% (Tyrosine-protein kinase ABL1, non-phosphorylated (ABL1, Homo sapiens, UniProt P00519, T315I); binding; 1 µM).
For Nc1nc2[nH]c(=O)cnc2c(=O)[nH]1, the Km was 18.3 ± 1.6 µM (lumazine dehydrogenase, Cupriavidus sp. LA-1; pH 7.5).
CC(C)(C#N)c1ccc(-c2cnc(Nc3cnccn3)nc2Cl)cc1: “number of kinases hit” 1 (human kinase panel; binding, KINOMEscan; 10000 nM, %Ctrl below 35).
CN(C)c1ccc2c(c1)C(=O)N(c1ccc(S(N)(=O)=O)cc1)C2=O gave a fluorescence turn-on of 4.2 fold (CA2 (Bos taurus, UniProt P00921); binding; 2 µM, pH 7.2; reference: without protein).
CC(=O)N1C[C@H](O)C[C@H]1C(=O)N[C@@H](CC(C)C)C(=O)N[C@@H](C)C(=O)N[C@@H](CC(=O)O)C(=O)COC(=O)c1c(C)cccc1C has a kinact/KI of 7000 M⁻¹ s⁻¹ (CASP7; enzyme activity, inhibitor).
COC(=O)Cc1cc2c(cc1C(=O)c1ccccc1I)OCO2 — result for “current amplitude after recovery”: 1240 ± 64 pA (Gria2 (Rattus norvegicus, UniProt P19491); glutamate-evoked current, whole-cell patch clamp; HEK-293T; concentration not given, glutamate alone after washout, together with: glutamate).
With CC(=O)N[C@H](C(=O)N[C@@H](CCO)C(=O)N[C@H](C(=O)N[C@@H](CC(=O)O)C(=O)COC(=O)c1c(C)cccc1C)C(C)C)C(C)C the kinact/KI was 15300 M⁻¹ s⁻¹ (CASP7; enzyme activity, inhibitor).
The inhibition of Nc1ccc(CNC(=O)c2cc(-c3ccccc3)n(-c3ccccc3)n2)cc1 is reported as 19% (Genome polyprotein, NS2B-NS3 protease (dengue virus type 2, UniProt P29990); reporter gene; HeLa; 12.5 µM).
